Experimental data of several laboratories.
Each line is one published result; not all experiments were run side by side. Numbers after ± are the reported error.
B1: sst2 catalytic domain 245-435 (Schizosaccharomyces pombe, UniProt Q9P371); sequence looked up; chain AGTFKIHAYTEGGKPLRTIYLPKLLKKVFLDVVKPNTKKNLETCGILCGKLRQNAFFITHLVIPLQEATSDTCGTTDEASLFEFQDKHNLLTLGWIHTHPTQTCFMSSVDLHTHCSYQLMLPEAIAIVMAPSKNTSGIFRLLDPEGLQTIVKCRKPGLFHPHEGKVYTMVAQPGHVREINSKLQVVDLRVK
B2: CD112 D1 domain 32-160 (human, UniProt Q92692); sequence looked up; chain QDVRVQVLPEVRGQLGGTVELPCHLLPPVPGLYISLVTWQRPDAPANHQNVAAFHPKMGPSFPSPKPGSERLSFVSAKQSTGQDTEAELQDATLALHGLTVEDEGNYTCEFATFPKGSVRGMTWLRVIA
B3: SMARCD1 SWIFT domain (Homo sapiens); chain IKQKRKLRIFISNTFNPAKSDAEDGEGTVASWELRVEGRLLEDSALSKYDATKQKRKFSSFFKSLVIELDKDLYGPDNHLVEWHRTATTQETDGFQVKRPGDVNVRCTVLLMLDYQPPQFMPPEPIIINHVISVDPNDQKKTACYDIDVEVDDTL
B4: CFH domains 1108-1231 S1191L (Homo sapiens, UniProt P08603); sequence looked up; chain KCGPPPPIDNGDITSFPLSVYAPASSVEYQCQNLYQLEGNKRITCRNGQWSEPPKCLHPCVISREIMENYNIALRWTAKQKLYLRTGESVEFVCKRGYRLSSRSHTLRTTCWDGKLEYPTCAKR
B5: protein (Pseudomonas aeruginosa, UniProt A0A0H2ZK79); sequence looked up; chain MTSIDISNTRQLLERASNDDLEPLVEYILKANTESLSKQVDFKRSHPEHRRYASSILDELRLFGGNSFVNLWRKSGPSYTEVVRDVASKLKVKGAGSMELIELEEAMVQSILRQALEKSSGEDRRELEVILREAGLDKTKMTALLNGSALSGLVVPTVARLILYRTSTVIVNSMAQQLLGHGLRSAVVAGGTFAGGRAVAALAGPVGWVIAGIWTAVDLAGPAYRVTIPCVLQIAMLRLKARAEAATDFMNGAFDG
B6: PUX5 301-421 R353A (Arabidopsis thaliana, UniProt Q7Y175); chain KNPFQGVGRTLGASGSGSSSAPQASSAPMNVAPAPSRGLVVDPAAPTTSIQLALADGTRLVSRFNNHHTVRDVRGFIDASRPGGSKEYQLLTMGFPPKQLTELDQTIEQAGIANAVVIQKF
Chain of UniProt P54609 (whole entry, looked up): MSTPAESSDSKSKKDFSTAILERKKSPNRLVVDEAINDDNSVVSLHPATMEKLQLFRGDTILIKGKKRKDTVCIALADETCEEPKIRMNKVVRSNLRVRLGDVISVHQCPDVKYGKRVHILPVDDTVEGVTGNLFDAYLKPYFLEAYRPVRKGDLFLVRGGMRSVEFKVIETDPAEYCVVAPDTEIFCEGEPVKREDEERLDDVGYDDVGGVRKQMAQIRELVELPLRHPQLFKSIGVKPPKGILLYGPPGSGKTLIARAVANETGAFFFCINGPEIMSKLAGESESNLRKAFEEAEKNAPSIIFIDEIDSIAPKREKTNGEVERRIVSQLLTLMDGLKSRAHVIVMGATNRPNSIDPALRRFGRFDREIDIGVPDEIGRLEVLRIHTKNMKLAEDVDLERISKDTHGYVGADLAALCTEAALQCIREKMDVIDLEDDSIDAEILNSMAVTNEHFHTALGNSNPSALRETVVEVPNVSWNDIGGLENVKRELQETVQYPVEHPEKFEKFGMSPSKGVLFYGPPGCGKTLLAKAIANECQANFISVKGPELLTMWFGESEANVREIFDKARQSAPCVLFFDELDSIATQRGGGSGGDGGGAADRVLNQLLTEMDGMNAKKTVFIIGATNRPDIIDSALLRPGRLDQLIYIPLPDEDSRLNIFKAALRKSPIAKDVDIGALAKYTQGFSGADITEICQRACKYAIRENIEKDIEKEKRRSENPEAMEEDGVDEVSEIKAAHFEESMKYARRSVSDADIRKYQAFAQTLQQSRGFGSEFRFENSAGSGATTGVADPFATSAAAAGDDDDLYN
Chain of UniProt P01024 (whole entry, looked up): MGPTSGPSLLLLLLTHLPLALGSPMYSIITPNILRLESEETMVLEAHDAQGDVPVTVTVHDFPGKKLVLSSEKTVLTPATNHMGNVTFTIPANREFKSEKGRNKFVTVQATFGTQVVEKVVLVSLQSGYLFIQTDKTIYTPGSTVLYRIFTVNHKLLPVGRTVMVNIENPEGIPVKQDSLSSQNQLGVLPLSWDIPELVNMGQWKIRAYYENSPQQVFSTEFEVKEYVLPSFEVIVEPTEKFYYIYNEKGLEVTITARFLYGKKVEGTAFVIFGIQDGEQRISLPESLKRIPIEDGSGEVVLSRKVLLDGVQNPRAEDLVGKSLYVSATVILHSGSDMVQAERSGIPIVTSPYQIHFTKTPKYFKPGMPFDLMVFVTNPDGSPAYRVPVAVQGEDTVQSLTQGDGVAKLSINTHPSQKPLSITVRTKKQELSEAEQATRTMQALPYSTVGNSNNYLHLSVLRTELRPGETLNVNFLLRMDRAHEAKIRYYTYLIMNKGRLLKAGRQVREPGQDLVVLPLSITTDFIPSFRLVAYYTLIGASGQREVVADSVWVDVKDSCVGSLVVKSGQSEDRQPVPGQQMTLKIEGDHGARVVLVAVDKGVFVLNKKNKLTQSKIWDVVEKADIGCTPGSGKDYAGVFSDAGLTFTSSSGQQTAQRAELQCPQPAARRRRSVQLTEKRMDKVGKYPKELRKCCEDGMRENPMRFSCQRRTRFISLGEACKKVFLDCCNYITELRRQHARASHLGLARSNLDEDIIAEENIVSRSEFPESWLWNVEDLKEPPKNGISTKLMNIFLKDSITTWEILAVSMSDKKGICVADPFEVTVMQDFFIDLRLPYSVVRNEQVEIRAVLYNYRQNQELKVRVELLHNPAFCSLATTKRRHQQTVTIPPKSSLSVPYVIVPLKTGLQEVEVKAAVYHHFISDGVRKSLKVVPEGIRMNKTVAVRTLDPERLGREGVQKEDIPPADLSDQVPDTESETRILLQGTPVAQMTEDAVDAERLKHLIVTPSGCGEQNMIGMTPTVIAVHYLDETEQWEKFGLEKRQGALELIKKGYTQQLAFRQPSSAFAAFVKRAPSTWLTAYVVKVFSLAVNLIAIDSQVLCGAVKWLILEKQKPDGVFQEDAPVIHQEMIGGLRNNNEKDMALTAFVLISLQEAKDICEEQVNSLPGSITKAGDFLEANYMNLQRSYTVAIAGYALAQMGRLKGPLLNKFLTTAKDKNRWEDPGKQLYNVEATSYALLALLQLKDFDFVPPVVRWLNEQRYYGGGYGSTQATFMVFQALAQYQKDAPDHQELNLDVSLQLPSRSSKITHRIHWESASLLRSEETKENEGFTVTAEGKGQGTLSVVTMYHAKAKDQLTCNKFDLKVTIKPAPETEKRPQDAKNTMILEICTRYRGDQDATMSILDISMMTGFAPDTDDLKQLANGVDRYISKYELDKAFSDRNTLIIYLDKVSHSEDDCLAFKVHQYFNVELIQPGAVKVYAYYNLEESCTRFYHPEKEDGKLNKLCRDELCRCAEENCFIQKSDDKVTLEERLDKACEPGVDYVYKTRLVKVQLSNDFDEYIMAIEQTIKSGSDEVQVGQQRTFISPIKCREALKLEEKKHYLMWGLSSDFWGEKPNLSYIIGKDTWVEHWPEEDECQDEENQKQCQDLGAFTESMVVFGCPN
Chain of UniProt P0CS90 (whole entry, looked up): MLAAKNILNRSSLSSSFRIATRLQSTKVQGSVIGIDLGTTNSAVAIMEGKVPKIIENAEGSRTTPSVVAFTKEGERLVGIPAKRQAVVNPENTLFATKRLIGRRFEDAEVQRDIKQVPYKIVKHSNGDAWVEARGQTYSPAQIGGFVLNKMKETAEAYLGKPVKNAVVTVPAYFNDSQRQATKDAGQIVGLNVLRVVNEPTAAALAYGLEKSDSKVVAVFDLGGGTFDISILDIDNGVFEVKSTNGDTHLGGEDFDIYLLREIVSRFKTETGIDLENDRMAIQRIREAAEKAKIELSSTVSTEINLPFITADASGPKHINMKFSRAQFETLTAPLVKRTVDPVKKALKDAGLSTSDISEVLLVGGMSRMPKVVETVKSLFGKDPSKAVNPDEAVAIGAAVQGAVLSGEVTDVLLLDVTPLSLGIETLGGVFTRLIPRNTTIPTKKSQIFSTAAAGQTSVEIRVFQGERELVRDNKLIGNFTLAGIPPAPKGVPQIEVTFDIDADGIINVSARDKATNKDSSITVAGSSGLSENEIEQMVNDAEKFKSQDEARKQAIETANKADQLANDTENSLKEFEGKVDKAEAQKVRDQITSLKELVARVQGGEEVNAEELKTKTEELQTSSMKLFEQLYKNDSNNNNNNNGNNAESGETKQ

B1 (sst2 catalytic domain 245-435) — Kd (UBB mature (UniProt P0CG47); ITC): 10.2 ± 0.6 µM
B2 (CD112 D1 domain 32-160) — Kd (PVRIG/Fc Fc fusion (Homo sapiens); BLI): 0.158 µM
pertuzumab — Kd (ERBB2 23-646 (Homo sapiens, UniProt P04626); SPR): 0.0023 µM
B3 (SMARCD1 SWIFT domain) — Kd (FOS FLAG-tagged, NHS Red dye labeled (UniProt P01100); MST): 4.71 ± 1.5 µM
B4 (CFH domains 1108-1231 S1191L) — Kd (C3 996-1303 (Homo sapiens, UniProt P01024); SPR): 4.6 ± 0.2 µM
B5 (protein) — Kd (protein (Pseudomonas aeruginosa, UniProt A0A0H2ZKW0); SPR): 31.6 µM
CDH2 EC3-EC5 (Homo sapiens) — Kd (FGB residues 15-66, dimer (Homo sapiens); ELISA): 0.0787 µM
ALLLSAPRR (P5 peptide; fluorescein label) — Kd (SSC1 mature (Saccharomyces cerevisiae, UniProt P0CS90); fluorescence polarization; peptide; 25 nM): 0.28 µM
KLLMIIHDRREFAKFEEEKMNAKWDTGENPIYKSAVTTVVNPKYEGK (ITGB1 752-798 K768E (Homo sapiens, UniProt P05556-1); sequence looked up) — Kd (Tln1 309-405 (Mus musculus, UniProt P26039); NMR titration): 324 µM
B6 (PUX5 301-421 R353A) — Kd (CDC48A 1-463 (Arabidopsis thaliana, UniProt P54609); ITC; 25 °C): 4.4 ± 0.4 µM
PYIL (neurotensin C-terminal 160-163 (PYIL)) — Kd (SORT1 fragment (Homo sapiens); SPR; peptide): 0.138 µM

Repeated from above:
ALLLSAPRR (P5 peptide; fluorescein label) — Kd (SSC1 mature (Saccharomyces cerevisiae, UniProt P0CS90); fluorescence polarization; peptide; 25 nM): 0.28 µM
B4 (CFH domains 1108-1231 S1191L) — Kd (C3 996-1303 (Homo sapiens, UniProt P01024); SPR): 4.6 ± 0.2 µM
